Assay results gathered from unrelated publications.
Lines come from different studies, so protocols differ. Numbers after ± are the reported error.

Compound | tested on | assay | test system | setting | how to read | quantity | result
O=C(CN1CCCCC1)Nc1ccc(C2CCCCC2)cc1 |  |  | dog liver microsomes | 1 µM |  | hepatic clearance | 26 mL/min/kg
Cc1cccc(Nc2n[nH]c3nc(-c4ccccc4)nc(N)c23)c1 | rhinovirus B48 | viral cytopathic effect | HeLa |  |  | IC50 | 1150 nM
Cc1cccc2c1N(C(=O)n1ccnn1)CC2 | Arabidopsis thaliana |  | kai2 mutant | 30 µM |  | germination rate | 21.3%
O=C(NC1CCOCC1)c1ccc([C@H]2[C@@H](F)[C@@H](F)C[C@@H](F)[C@H]2F)cc1 |  | liver microsome stability | cynomolgus liver microsomes | 1 µM |  | hepatic clearance | 4.9 mL/min/kg
Nc1nc(-c2ccccc2)nc2[nH]nc(Nc3cccc(Cl)c3)c12 | rhinovirus B48 | viral cytopathic effect | HeLa |  |  | IC50 | 8890 nM
CC(C)(C)NCC(SS(=O)(=O)O)c1ccccc1 (centres unmarked) | Schistosoma mansoni |  | mice | 600 mg/kg single dose, 1248 h, dosed day 7, perfused 52 | reference: vehicle | male worm burden reduction | 32%
Cc1cc(Cl)cc(S(C)=NC#N)c1NC(=O)c1cc(Br)nn1-c1ncccc1Cl (centres unmarked) | Plutella xylostella |  | Raphanus sativus field | 50 ppm, 72 h, 10% wettable powder |  | larval survival | 10.7%
c1ccc(CN2CCOCCOCCN(CCCCCCCCCCN3CCOCCOCCN(CCCCCCCCCCN4CCOCCOCCN(Cc5ccccc5)CCOCCOCC4)CCOCCOCC3)CCOCCOCC2)cc1 | Klebsiella pneumoniae |  | ATCC BAA-2146 | quarter MIC, together with: tetracycline |  | tetracycline MIC | 300 ± 50 µM
Nc1nc(-c2ccccc2)nc2[nH]nc(Nc3ccc(F)cc3F)c12 | rhinovirus B48 | viral cytopathic effect | HeLa |  |  | IC50 | 50 nM
c1ccc(CN2CCOCCOCCN(CCCCCCCCN3CCOCCOCCN(CCCCCCCCN4CCOCCOCCN(Cc5ccccc5)CCOCCOCC4)CCOCCOCC3)CCOCCOCC2)cc1 | Klebsiella pneumoniae | ciprofloxacin activity | ATCC BAA-2146 | half MIC, together with: ciprofloxacin | reference: ciprofloxacin alone | fold enhancement | 10 fold
C=C(NC(=O)c1csc(-c2nc3c(cc2O)-c2nc(cs2)C(=O)NC(C(C)O)C(=O)NC(=C(C)OC)c2nc(cs2)C(=O)NC2c4nc(cs4)C(=O)NC(COC(=O)c4c5c6c(cccc6n4O)COC(=O)C(OC4CC(C)(O)C(N(C)C)C(C)O4)C2OC5)c2nc-3cs2)n1)C(N)=O (centres unmarked) | Streptococcus pneumoniae |  | -25, immunocompromised mice, lung | 8 mg/kg/day thrice daily, 24 h post-dose |  | lung bacterial load | 3.96 log10 CFU/lung

A few entries again:
Compound | tested on | assay | test system | setting | how to read | quantity | result
c1ccc(CN2CCOCCOCCN(CCCCCCCCN3CCOCCOCCN(CCCCCCCCN4CCOCCOCCN(Cc5ccccc5)CCOCCOCC4)CCOCCOCC3)CCOCCOCC2)cc1 | Klebsiella pneumoniae | ciprofloxacin activity | ATCC BAA-2146 | half MIC, together with: ciprofloxacin | reference: ciprofloxacin alone | fold enhancement | 10 fold
